# Experimental data collected from several papers.
# A part holds a random share of what one study measured. Values joined by “and” are separate records of one study, mostly repeats; a detail may differ.
# UniProt Q16512, sequence (whole entry, looked up): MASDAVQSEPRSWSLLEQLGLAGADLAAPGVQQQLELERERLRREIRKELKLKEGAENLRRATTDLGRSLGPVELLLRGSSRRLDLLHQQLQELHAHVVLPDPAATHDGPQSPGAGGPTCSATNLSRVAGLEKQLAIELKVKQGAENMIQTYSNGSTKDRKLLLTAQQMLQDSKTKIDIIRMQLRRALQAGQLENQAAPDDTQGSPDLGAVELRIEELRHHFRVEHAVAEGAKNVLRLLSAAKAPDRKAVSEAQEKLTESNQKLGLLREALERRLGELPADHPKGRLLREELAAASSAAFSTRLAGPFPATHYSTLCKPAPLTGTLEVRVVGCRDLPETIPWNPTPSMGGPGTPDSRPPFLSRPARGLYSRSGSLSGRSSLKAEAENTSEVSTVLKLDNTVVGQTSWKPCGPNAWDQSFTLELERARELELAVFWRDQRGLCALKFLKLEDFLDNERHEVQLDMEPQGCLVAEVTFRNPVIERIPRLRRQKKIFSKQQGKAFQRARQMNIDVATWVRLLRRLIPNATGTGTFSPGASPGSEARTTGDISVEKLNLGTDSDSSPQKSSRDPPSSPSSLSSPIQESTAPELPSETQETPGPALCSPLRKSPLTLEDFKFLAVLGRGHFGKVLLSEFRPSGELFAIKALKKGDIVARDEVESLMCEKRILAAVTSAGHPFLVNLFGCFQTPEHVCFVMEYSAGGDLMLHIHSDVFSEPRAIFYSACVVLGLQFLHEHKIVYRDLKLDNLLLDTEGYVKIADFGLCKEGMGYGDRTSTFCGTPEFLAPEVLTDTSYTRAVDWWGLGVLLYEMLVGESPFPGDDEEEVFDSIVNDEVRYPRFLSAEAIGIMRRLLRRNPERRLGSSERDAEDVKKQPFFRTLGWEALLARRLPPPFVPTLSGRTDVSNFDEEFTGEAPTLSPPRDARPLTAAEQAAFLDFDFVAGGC
# UniProt Q86Z02, sequence (whole entry, looked up): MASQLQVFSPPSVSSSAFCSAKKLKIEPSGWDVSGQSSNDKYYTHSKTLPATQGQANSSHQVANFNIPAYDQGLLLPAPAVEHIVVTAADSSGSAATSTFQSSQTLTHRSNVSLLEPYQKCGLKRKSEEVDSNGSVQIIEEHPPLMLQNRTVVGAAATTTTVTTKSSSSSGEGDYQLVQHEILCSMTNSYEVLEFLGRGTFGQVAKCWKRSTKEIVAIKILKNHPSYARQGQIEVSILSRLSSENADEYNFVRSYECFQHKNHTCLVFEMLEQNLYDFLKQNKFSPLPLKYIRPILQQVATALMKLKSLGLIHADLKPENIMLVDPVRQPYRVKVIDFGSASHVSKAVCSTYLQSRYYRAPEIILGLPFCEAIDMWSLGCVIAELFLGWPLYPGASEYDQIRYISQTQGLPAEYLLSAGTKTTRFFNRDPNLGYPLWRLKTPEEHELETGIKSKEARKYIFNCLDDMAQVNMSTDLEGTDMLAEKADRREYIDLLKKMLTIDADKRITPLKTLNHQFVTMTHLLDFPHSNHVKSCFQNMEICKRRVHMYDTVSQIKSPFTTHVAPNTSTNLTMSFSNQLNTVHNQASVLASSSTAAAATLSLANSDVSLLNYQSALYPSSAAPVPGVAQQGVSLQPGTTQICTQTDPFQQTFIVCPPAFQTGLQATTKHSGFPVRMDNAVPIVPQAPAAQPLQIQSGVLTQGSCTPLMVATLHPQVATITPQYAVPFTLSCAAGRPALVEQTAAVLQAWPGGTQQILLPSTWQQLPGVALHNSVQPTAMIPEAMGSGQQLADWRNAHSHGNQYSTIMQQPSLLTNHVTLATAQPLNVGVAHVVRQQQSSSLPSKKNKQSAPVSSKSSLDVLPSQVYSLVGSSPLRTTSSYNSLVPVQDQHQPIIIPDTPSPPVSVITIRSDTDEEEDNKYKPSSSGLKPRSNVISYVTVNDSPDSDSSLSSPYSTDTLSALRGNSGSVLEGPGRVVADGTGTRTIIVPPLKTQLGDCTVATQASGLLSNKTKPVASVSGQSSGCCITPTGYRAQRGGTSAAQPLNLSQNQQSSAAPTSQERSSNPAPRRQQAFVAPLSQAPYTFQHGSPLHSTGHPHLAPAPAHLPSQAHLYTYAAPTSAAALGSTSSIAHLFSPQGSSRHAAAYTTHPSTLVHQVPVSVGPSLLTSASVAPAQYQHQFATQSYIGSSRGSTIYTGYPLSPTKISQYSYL
# UniProt P27448, sequence (whole entry, looked up): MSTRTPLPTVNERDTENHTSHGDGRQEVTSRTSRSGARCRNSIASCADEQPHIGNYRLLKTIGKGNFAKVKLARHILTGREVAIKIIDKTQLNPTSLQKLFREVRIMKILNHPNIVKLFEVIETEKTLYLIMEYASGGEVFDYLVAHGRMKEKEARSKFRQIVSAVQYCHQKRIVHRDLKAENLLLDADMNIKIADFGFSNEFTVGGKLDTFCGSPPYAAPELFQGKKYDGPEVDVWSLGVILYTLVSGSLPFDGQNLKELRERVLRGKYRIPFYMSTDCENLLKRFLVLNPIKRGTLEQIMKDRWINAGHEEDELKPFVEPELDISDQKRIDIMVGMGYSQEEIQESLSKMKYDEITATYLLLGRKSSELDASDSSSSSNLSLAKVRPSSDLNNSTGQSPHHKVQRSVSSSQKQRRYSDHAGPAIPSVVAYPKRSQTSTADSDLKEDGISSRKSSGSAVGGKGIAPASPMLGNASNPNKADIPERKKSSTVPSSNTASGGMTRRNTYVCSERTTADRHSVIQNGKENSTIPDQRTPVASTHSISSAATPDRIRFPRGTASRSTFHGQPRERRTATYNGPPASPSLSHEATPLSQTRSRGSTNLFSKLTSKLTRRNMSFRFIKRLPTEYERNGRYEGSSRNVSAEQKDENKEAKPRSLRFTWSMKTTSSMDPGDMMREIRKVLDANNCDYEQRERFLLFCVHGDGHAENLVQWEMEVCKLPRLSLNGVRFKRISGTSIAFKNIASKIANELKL

# Study 1
# Compound: CC(=O)N[C@@H](Cc1c[nH]c2ccccc12)C(=O)N[C@@H](CCC(=O)C=[N+]=[N-])C(=O)OC(C)C
species,route,dose,time,notes,reference,body weight
"C57BL/6 CES1-/- mouse, both sexes",,0.1 mg/kg,day 15,,,96.2% and 100% and 104% and 105% and 96.6% and 114%
"C57BL/6 CES1-/- mouse, EL4 tumour",intravenous,1 mg/kg DON equivalent,treatment day 9,5 days per week,baseline,93% and 96% and 97% and 100% and 105% and 104%
"C57BL/6 CES1-/- mouse, EL4 tumour",intravenous,1 mg/kg DON equivalent,treatment day 8,5 days per week,baseline,105% and 96% and 100% and 104% and 93%
"C57BL/6 CES1-/- mouse, both sexes",,0.1 mg/kg,day 9,,,100% and 96.6% and 105%
"C57BL/6 CES1-/- mouse, both sexes",,0.1 mg/kg,day 8,,,100% and 104% and 95.5%

# Study 2
# Compound: CN[C@@H]1C[C@H]2O[C@@](C)([C@@H]1OC)n1c3ccccc3c3c4c(c5c6ccccc6n2c5c31)C(=O)NC4
# Observed: enzyme activity
# Mode: inhibitor
# Tested at: 0.5 µM
# Reference: control
target,remaining activity
"PKN1 (Homo sapiens, UniProt Q16512)",0.148% and 1.37%
"HIPK1 (Homo sapiens, UniProt Q86Z02)",96.5% and 101%
"MARK3 (Homo sapiens, UniProt P27448)",0.716% and 4.76%

# Study 3
# Structure (SMILES): CNC(=O)c1ccc(-c2cnn3ccc(C(=O)N(C)c4ccc(Cl)c(C(=O)OC)c4)cc23)cc1
# Species: female IFN-γ knockout C57BL/6 mice
# Medium: plasma
# Route: oral
# Dose: 10 mg/kg
time,mean plasma concentration
7 h,0.612 nM
3 h,1.99 nM
0.25 h,0.822 nM
1 h,8.4 nM
0.5 h,2.94 nM

# Study 4
# Cell line: HaCaT
# Tested at: 100 µM
# Time: 36 h
SMILES,viability
C#C[C@]1(O)CC[C@H]2[C@@H]3CCC4=CC(=O)CC[C@]4(C)[C@H]3CC[C@@]21C,61.7%
c1ccc(NNc2ccccc2)cc1,62.9%
CC(C)(C)NCC(O)c1ccccc1Cl (stereo not shown),70.1%
CCNCC(O)c1cccc(O)c1 (stereo not shown),88.6%
CCOC(=O)CC(SP(=S)(OC)OC)C(=O)OCC (stereo not shown),40.6%
C=CC[C@]1(O)CC[C@H]2[C@@H]3CCC4=CCCC[C@@H]4[C@H]3CC[C@@]21C,7.24%
